Published values pooled from the literature.
Parts stem from different laboratories: compare values within a part only.
Sequence of UniProt P37173 (whole entry, looked up): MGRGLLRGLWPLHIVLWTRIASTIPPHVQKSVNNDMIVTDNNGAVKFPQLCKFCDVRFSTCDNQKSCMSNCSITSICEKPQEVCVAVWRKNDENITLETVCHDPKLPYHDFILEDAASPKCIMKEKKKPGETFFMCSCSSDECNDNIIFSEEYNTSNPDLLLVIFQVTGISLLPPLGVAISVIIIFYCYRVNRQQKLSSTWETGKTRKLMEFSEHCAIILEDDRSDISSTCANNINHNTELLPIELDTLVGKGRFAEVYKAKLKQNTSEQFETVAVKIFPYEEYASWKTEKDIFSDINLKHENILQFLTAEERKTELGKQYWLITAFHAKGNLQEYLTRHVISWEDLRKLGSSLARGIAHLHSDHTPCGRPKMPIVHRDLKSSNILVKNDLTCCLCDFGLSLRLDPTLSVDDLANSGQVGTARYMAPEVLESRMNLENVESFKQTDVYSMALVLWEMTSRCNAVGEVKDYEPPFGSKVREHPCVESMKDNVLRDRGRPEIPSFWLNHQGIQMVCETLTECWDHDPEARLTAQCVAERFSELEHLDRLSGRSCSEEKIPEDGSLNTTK
Sequence of UniProt Q00526 (whole entry, looked up): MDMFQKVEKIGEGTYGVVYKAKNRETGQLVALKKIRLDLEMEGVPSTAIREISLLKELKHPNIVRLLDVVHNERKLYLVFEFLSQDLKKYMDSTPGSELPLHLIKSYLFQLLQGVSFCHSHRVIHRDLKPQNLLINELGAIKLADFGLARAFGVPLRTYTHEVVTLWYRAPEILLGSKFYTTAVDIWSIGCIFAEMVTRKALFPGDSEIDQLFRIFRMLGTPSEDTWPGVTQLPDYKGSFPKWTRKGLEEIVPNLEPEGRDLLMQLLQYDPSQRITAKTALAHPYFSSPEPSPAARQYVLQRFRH
Sequence of UniProt Q8N5S9 (whole entry, looked up): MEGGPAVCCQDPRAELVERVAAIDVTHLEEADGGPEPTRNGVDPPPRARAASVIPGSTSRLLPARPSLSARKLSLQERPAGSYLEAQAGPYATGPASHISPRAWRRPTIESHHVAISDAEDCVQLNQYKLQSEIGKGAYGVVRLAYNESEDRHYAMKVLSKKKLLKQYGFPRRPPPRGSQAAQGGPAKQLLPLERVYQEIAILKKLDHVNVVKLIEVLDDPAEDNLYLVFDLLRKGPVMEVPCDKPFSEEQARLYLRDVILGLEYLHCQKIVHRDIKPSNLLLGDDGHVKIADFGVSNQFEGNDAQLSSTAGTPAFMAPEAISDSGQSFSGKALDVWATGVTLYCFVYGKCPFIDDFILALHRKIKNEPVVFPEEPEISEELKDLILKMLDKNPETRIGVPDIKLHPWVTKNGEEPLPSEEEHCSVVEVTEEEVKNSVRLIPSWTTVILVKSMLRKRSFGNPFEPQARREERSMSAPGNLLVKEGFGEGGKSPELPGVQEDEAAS
Sequence of UniProt Q9Y3S1 (whole entry, looked up): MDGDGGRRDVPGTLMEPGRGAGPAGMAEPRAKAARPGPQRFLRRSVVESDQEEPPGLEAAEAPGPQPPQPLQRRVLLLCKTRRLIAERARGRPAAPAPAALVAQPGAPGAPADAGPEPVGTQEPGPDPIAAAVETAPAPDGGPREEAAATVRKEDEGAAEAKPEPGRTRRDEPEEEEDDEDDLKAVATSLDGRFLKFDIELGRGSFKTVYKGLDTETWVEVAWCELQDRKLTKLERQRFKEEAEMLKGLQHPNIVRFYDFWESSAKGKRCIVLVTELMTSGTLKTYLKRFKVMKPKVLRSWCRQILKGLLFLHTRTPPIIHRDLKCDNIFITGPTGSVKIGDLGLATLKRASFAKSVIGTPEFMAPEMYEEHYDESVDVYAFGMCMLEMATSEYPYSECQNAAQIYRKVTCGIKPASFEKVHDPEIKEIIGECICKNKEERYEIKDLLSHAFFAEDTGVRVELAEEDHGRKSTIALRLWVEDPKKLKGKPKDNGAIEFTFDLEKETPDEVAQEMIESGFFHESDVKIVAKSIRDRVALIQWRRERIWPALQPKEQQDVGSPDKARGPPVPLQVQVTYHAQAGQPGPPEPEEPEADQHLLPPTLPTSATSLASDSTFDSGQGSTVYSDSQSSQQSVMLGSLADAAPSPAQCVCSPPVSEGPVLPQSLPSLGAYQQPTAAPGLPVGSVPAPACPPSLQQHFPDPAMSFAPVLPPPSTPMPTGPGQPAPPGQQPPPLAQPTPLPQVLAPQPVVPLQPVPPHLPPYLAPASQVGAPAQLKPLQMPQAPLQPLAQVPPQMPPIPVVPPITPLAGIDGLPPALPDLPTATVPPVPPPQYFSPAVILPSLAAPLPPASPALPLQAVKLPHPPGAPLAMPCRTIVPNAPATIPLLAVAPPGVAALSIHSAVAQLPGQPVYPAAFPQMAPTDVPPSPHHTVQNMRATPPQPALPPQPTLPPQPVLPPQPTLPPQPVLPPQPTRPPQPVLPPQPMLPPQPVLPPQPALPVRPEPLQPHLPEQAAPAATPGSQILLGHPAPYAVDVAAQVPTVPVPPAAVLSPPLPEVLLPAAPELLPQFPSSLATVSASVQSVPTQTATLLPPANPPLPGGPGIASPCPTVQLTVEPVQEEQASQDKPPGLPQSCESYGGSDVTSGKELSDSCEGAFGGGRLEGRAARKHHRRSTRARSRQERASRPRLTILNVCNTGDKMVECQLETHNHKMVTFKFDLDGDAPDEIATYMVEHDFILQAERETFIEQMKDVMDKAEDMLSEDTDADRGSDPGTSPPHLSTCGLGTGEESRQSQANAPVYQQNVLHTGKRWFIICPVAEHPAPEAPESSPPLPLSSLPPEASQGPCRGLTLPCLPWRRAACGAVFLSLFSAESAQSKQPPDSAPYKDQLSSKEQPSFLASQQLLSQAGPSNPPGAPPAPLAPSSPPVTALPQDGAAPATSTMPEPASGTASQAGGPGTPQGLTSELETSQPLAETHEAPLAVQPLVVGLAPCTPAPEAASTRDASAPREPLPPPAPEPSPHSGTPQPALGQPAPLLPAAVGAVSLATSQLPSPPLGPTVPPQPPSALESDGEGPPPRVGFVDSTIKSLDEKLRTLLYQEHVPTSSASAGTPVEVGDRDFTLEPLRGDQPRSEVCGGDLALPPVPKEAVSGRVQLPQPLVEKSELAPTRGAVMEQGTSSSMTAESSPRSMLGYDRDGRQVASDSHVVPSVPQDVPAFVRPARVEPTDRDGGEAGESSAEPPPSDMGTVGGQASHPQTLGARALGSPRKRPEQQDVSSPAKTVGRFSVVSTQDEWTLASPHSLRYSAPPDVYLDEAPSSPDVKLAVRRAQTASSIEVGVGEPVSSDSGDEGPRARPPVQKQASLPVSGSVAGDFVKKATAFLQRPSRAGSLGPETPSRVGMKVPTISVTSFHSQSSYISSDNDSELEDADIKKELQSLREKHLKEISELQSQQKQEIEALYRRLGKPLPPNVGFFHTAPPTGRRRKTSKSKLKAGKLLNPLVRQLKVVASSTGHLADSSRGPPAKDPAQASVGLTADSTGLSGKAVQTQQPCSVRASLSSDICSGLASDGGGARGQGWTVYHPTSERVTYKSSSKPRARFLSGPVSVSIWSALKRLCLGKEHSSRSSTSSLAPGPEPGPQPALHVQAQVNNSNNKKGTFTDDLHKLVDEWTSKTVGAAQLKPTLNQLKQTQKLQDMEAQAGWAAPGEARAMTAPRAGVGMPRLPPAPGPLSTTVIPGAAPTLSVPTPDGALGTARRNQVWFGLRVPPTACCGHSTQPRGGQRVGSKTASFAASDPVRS
Sequence of UniProt P00519 (whole entry, unmodified, looked up): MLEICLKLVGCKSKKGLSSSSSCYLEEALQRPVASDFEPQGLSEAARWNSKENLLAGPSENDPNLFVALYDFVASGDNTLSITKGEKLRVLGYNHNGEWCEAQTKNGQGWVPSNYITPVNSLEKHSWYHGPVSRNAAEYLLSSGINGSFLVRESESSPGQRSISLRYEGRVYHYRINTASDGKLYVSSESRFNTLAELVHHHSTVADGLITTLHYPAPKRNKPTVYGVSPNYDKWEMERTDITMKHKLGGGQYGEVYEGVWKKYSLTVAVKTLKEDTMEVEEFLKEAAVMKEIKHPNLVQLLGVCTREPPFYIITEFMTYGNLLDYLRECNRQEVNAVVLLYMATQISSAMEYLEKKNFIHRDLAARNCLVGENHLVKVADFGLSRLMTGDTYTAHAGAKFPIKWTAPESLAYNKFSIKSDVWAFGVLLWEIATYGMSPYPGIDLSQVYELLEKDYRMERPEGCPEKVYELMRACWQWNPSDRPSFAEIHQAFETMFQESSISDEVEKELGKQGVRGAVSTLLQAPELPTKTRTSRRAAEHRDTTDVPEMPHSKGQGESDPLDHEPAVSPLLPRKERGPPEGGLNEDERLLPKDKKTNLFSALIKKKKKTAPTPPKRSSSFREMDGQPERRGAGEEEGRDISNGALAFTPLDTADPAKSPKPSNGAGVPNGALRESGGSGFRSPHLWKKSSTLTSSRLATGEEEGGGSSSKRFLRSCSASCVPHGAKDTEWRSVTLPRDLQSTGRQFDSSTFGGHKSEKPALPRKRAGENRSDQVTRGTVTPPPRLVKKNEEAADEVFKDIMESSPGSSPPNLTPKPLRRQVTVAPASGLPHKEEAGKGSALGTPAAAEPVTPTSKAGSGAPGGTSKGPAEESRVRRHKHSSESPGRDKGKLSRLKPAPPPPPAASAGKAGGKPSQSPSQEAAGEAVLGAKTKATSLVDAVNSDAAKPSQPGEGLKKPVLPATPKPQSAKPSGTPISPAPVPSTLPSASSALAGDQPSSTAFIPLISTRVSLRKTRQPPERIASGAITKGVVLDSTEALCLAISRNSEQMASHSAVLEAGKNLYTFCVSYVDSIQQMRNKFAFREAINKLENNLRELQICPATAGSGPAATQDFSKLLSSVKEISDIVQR

Block 1 — species: human; matrix: microsomes or S9; concentration: 2 µM; time: 0.5 h
For `NC1CCN(c2nc3c(cc2F)c(=O)c(C(=O)O)cn3-c2ccc(F)cn2)C1` (centres unmarked), the remaining compound was 88.5%.
`O=C(CN1C(C(=O)c2ccccc2)=C(O)c2ccccc2S1(=O)=O)Nc1ccc(Br)cc1F` gave a remaining compound of 15.7%.
`Cc1ccc(N2CC(c3nc(-c4cc5c(C)nn(-c6ccccc6)c5s4)no3)CC2=O)cc1` (centres unmarked) gave a remaining compound of over 100%.

Block 2 — target: Sox, HMG box (Pigoraptor chileana); method: Spec-seq; molecule type: double-stranded DNA, one strand shown; matrix: in vitro; concentration: not given; setting: whole probe, mean of replicates; reference: not given; reading: lower = stronger binding; constant ends, left off below: GAGTCGTCTCGTCAGCAC … CCGTAGAGCACTCAGGTC
Residues (chain): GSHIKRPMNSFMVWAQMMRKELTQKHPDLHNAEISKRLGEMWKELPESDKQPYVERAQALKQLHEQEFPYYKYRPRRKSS
`GGTTGTT`: “relative binding energy” -0.87 ln ratio.
`TATGGTT`: “relative binding energy” -0.581 ln ratio.
Under “relative binding energy”, `CATGAAG` is recorded as 0.208 ln ratio.
`CATTAAG`: “relative binding energy” -0.183 ln ratio.
`CATGGAC`: “relative binding energy” 0.421 ln ratio.
Under “relative binding energy”, `CATTGGA` is recorded as 0.11 ln ratio.
`CATGCAT`: “relative binding energy” 0.64 ln ratio.
Under “relative binding energy”, `TCCCGTT` is recorded as 0.426 ln ratio.

Block 3 — method: competition protein-binding microarray; molecule type: double-stranded DNA, one strand shown; matrix: in vitro; concentration: 2 µM; with: Cbf1 competitor, 0.05 µM; reading: higher = stronger binding; constant ends, left off below: … GTCTTGATTCGCTTGACGCTGCTG
Target: Phosphate system positive regulatory protein PHO4, full length, GST-tagged (PHO4, Saccharomyces cerevisiae, UniProt P07270, residues 1-312)
Setting: whole 60-bp probe, lowest competitor level
Residues (chain): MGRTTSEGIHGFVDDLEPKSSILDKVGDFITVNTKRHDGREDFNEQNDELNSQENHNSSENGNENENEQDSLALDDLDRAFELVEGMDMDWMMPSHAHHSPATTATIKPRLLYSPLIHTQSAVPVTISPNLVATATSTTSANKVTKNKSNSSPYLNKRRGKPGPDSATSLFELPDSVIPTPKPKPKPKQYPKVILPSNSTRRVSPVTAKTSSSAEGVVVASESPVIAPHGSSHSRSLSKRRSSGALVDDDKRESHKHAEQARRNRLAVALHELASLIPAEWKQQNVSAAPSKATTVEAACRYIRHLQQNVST
For `GATATGTTTCTAATGCGCGTGTGAAGGGAATTTCGG`, the fluorescence intensity was 10400 a.u.
For `CTTCCTTCCAGAGCCCGCGTGCTAATGCAGAGTGGT`, the fluorescence intensity was 11500 a.u.
The fluorescence intensity of `AAAGCGGTAATTTGATATGTGGGTGCAGATATCTAT` is reported as 4870 a.u.
With `CCAATCACCGTTCCACGCGTGCAAATCTCTATGACA` the fluorescence intensity was 9520 a.u.
With `GATGGAATTACCCATCACGCTCCTCTCTTATGACTA` the fluorescence intensity was 5810 a.u.
The fluorescence intensity of `ATTAAAATCATTTAGTCCTTTATCTCTTATCCTTTT` is reported as 3040 a.u.
The fluorescence intensity of `TTGTAGTTGTTGCTGTTGAGGTGGCAGTTGAGAGCT` is reported as 3930 a.u.
`CGTCCTAGTGATTGTCACACGACTTCCATGAGGAAG` has a fluorescence intensity of 6410 a.u.

Block 4 — method: competition with immobilised ligand; concentration: 1 µM
Structure (SMILES): N#CC1(c2ccccn2)CCN(Cc2cc(C(=O)N3CCCC3)c(=O)n3ccccc23)CC1
MAP3K13 (Homo sapiens, UniProt O43283); cell-free assay — remaining binding: 100%.
The remaining binding was 63% (MAPK7 (Homo sapiens, UniProt Q13164); cell-free assay).
The remaining binding was 93% (TGFBR2 (Homo sapiens, UniProt P37173); cell-free assay).
CDK3 (Homo sapiens, UniProt Q00526); cell-free assay — remaining binding: 79%.
CAMKK1 (Homo sapiens, UniProt Q8N5S9); cell-free assay — remaining binding: 100%.
The remaining binding was 100% (WNK2 (Homo sapiens, UniProt Q9Y3S1); cell-free assay).
PIK3CA (Homo sapiens, UniProt P42336, C420R); cell-free assay — remaining binding: 87%.
It gave 87% for remaining binding (GRK7 (Homo sapiens, UniProt Q8WTQ7); cell-free assay).
MAST1 (Homo sapiens, UniProt Q9Y2H9); cell-free assay — remaining binding: 82%.
The remaining binding was 96% (ULK3 (Homo sapiens, UniProt Q6PHR2); cell-free assay).
Tyrosine-protein kinase ABL1, phosphorylated (ABL1, Homo sapiens, UniProt P00519, E255K); binding — remaining binding: 87%.
For MAPK13 (Homo sapiens, UniProt O15264); cell-free assay: remaining binding read 89%.
The remaining binding was 100% (EPHB4 (Homo sapiens, UniProt P54760); cell-free assay).

Some of these lines once more (block 3):
The fluorescence intensity of `AAAGCGGTAATTTGATATGTGGGTGCAGATATCTAT` is reported as 4870 a.u.
For `GATATGTTTCTAATGCGCGTGTGAAGGGAATTTCGG`, the fluorescence intensity was 10400 a.u.
With `CCAATCACCGTTCCACGCGTGCAAATCTCTATGACA` the fluorescence intensity was 9520 a.u.
For `CTTCCTTCCAGAGCCCGCGTGCTAATGCAGAGTGGT`, the fluorescence intensity was 11500 a.u.
